Measurements from different studies.
Each line is one published result; not all experiments were run side by side.
Organism: Escherichia coli

| SMILES | assay | system | conditions | scale | MIC |
| --- | --- | --- | --- | --- | --- |
| CC(C)Oc1c(NC(=O)c2ccc(NC(=O)[C@H](CC(N)=O)NC(=O)c3ccc(NC(=O)c4ccc(C#N)cc4)cc3)cc2)ccc(C(=O)Nc2ccc(C(=O)O)cc2)c1O |  | K12 ΔtolC |  |  | 0.06 µg/mL |
| CC1(C)SC2C(NC(=O)C(NC(=O)C3=C(O)C(c4ccccc4)NC3=O)c3ccccc3)C(=O)N2C1C(=O)O (centres unmarked) | broth microdilution | Keio mutant JW2142-1 |  |  | 25 µg/mL |
| CCCCCCC/C=C/C(=O)N1C(=O)/C(=C(/C)O)C(=O)C1CCC(=O)O (centres unmarked) |  | K12 ΔtolC |  |  | 12.5 µg/mL |
| CCN1CCN(C(=O)N[C@@H](C(=O)N[C@@H]2C(=O)N3[C@@H]2SC(C)(C)[C@@H]3C(=O)O)c2ccccc2)C(=O)C1=O |  | BL21(DE3) wild type |  |  | < 1.75 µg/mL |
| CC[C@H](C)[C@H](NC(=O)[C@H](CC(C)C)NC(=O)[C@H](CCCNC(=N)N)NC(=O)[C@@H](N)CCCNC(=N)N)C(=O)N[C@@H](CCCNC(=N)N)C(=O)N[C@@H](CCCCN)C(=O)N[C@@H](CC(C)C)C(=O)N[C@@H](CCCCN)C(=O)NCC(=O)N[C@@H](CC(C)C)C(=O)N[C@@H](CCCCN)C(=O)N[C@@H](CCCCN)C(=O)N[C@@H](Cc1ccc(O)cc1)C(=O)N[C@@H](CC(C)C)C(=O)N[C@@H](Cc1ccc(O)cc1)C(=O)N[C@@H](Cc1ccccc1)C(=O)N[C@@H](CCCCN)C(=O)N[C@@H](CC(C)C)C(=O)N[C@@H](CCC(N)=O)C(=O)N[C@@H](CC(C)C)C(=O)N[C@@H](CC(C)C)C(=O)N[C@@H](CCCCN)C(=O)N[C@@H](CCCCN)C(N)=O | broth microdilution | KCTC 1682, Mueller-Hinton broth | 24 h, 37 °C |  | 4 µM |
| CC1(C)CC[C@]2(C(=O)O)CC[C@]3(C)C(=CC[C@@H]4[C@@]5(C)CC[C@H](O)C(C)(C)[C@@H]5CC[C@]43C)[C@@H]2C1 |  | E4, NDM-5/OXA-1 |  |  | 256 µg/mL |
| N=C(N)NCCC[C@H](NC(=O)[C@H](Cc1c[nH]c2ccccc12)NC(=O)[C@@H](N)CCCNC(=N)N)C(=O)N[C@@H](Cc1c[nH]c2ccccc12)C(=O)N[C@@H](Cc1ccccc1)C(=O)N[C@@H](CCC(N)=O)C(=O)N[C@@H](Cc1ccccc1)C(=O)N[C@@H](CCC(N)=O)C(=O)N[C@@H](Cc1ccccc1)C(=O)N[C@@H](CCCCN)C(N)=O | broth microdilution, optical density |  |  |  | 4.4 µM |
| C[C@@H](O)[C@H]1C(=O)N2C(C(=O)O)=C(S[C@@H]3CN[C@H](C(=O)N(C)C)C3)[C@H](C)[C@H]12 |  | DH5α expressing KPC-137 |  |  | 0.5 µg/mL |
| CC[C@H](C)[C@H](NC(=O)CNC(=O)[C@H](CC(=O)O)NC(=O)[C@H](C)NC(=O)[C@@H](NC(=O)[C@H](CC(N)=O)NC(=O)[C@H](CCCNC(=N)N)NC(=O)CNC(=O)[C@@H](NC(=O)[C@H](CCCCN)NC(=O)[C@H](CCC(=O)O)NC(=O)[C@@H](NC(=O)[C@H](CCCCN)NC(=O)[C@H](CCCCN)NC(=O)[C@H](Cc1ccccc1)NC(=O)[C@@H](NC(=O)[C@H](CCCCN)NC(=O)[C@H](Cc1c[nH]c2ccccc12)NC(=O)[C@@H](N)CCCNC(=N)N)[C@@H](C)CC)[C@@H](C)CC)C(C)C)C(C)C)C(=O)N[C@H](C(=O)N[C@@H](CCCCN)C(=O)N[C@@H](C)C(=O)NCC(=O)N1CCC[C@H]1C(=O)N[C@@H](C)C(=O)N[C@H](C(=O)N[C@@H](C)C(=O)N[C@H](C(=O)N[C@H](C(=O)NCC(=O)N[C@@H](CCC(N)=O)C(=O)N[C@@H](C)C(=O)N[C@@H](C)C(=O)N[C@H](C(=O)N[C@H](C(=O)N[C@H](C(=O)N[C@@H](CCCCN)C(N)=O)C(C)C)C(C)C)[C@@H](C)O)C(C)C)C(C)C)C(C)C)[C@@H](C)CC |  | KCTC 1682, Mueller-Hinton broth | 16 h, 37 °C | growth inhibition over 99% | 2 µM |
| CC[C@H](C)[C@H](NC(=O)[C@H](CCCNC(=N)N)NC(=O)[C@H](CCCNC(=N)N)NC(=O)[C@H](CCCNC(=N)N)NC(=O)[C@H](CCCNC(=N)N)NC(=O)[C@H](CC(C)C)NC(=O)[C@H](CCCNC(=N)N)NC(=O)[C@H](CO)NC(=O)[C@@H](N)CO)C(=O)N[C@H](C(=O)N[C@@H](CC(C)C)C(=O)N[C@@H](CCCNC(=N)N)C(=O)N[C@@H](CCCNC(=N)N)C(=O)N[C@@H](CCCNC(=N)N)C(=O)N[C@@H](CCCNC(=N)N)C(=O)N[C@@H](Cc1ccccc1)C(=O)N[C@@H](CO)C(=O)N[C@@H](C)C(=O)N[C@@H](Cc1ccc(O)cc1)C(N)=O)C(C)C | checkerboard |  | 24 h, 37 °C, alone, rifampicin plate |  | 64 µM |
| CC1=C[C@@H]2CN(C(=O)N2OS(=O)(=O)O)[C@@H]1C(N)=O |  | ATCC 2469, NDM-positive | compound alone |  | > 128 µg/mL |
| O=C(NC1CCCCC1)C(CCc1ccccc1)N(CCc1c[nH]cn1)C(=O)c1ccccc1 (centres unmarked) |  | TolC |  |  | 128 µM |
| CC[C@@H](C)[C@@H](N)C(=O)N[C@@H](C(=O)N[C@H](Cc1ccc(O)cc1)C(=O)N[C@@H](C(=O)N[C@H](CCN)C(=O)N[C@H](CC(C)C)C(=O)N[C@H](CO)C(=O)N[C@H](CCN)C(=O)N[C@@H](C(=O)N[C@H](CCN)C(=O)N[C@H](Cc1c[nH]cn1)C(=O)N[C@H](CCN)C(=O)N[C@H](C)C(=O)N[C@H](CCN)C(=O)N[C@H](CCN)C(N)=O)[C@H](C)CC)[C@H](C)CC)[C@H](C)CC |  | ATCC 25922, Mueller-Hinton broth | 20 h, 37 °C |  | 4 µg/mL |
| CC[C@H](C)[C@H](NC(=O)[C@H](C)NC(=O)CNC(=O)[C@H](C)NC(=O)[C@H](CCCCN)NC(=O)[C@H](CO)NC(=O)[C@H](C)NC(=O)[C@H](CCSC)NC(=O)CN)C(=O)N[C@@H](C)C(=O)NCC(=O)N[C@@H](CCCCN)C(=O)N[C@H](C(=O)N[C@@H](C)C(=O)N[C@@H](CCCCN)C(=O)N[C@H](C(=O)N[C@@H](C)C(=O)N[C@@H](CC(C)C)C(=O)N[C@@H](CCCCN)C(=O)N[C@@H](C)C(=O)N[C@@H](CC(C)C)C(N)=O)C(C)C)[C@@H](C)CC | broth dilution | K12 BW25113 | 18 h, 37 °C |  | 4.6 µM |
| CC[C@H](C)[C@H](NC(=O)[C@H](CC(C)C)NC(=O)[C@H](CCCNC(=N)N)NC(=O)[C@@H](N)CCCNC(=N)N)C(=O)N[C@@H](CCCNC(=N)N)C(=O)N[C@@H](CCCCN)C(=O)N[C@@H](CC(C)C)C(=O)N[C@@H](CCCCN)C(=O)NCC(=O)N1CCC[C@H]1C(=O)N[C@H](C(=O)N[C@H](C(=O)N[C@@H](Cc1ccc(O)cc1)C(=O)N[C@@H](CC(C)C)C(=O)N[C@@H](Cc1ccc(O)cc1)C(=O)N[C@@H](Cc1ccccc1)C(=O)N[C@@H](CCCCN)C(=O)N[C@@H](CC(C)C)C(=O)N[C@@H](CCC(N)=O)C(=O)N[C@@H](CC(C)C)C(=O)N[C@@H](CC(C)C)C(=O)N[C@@H](CCCCN)C(=O)N[C@@H](CCCCN)C(N)=O)[C@@H](C)CC)[C@@H](C)CC | broth microdilution | KCTC 1682, Mueller-Hinton broth | 24 h, 37 °C |  | 32 µM |
| N=C(N)c1ccc(OCc2ccccc2COc2ccc(C(=N)N)cc2)cc1 |  | BW25113 mcr-1 | compound alone |  | > 200 µg/mL |
| CC(C)C[C@H](NC(=O)[C@H](CC(C)C)NC(=O)[C@@H](N)[C@@H](C)O)C(=O)N[C@@H](CCCCN)C(=O)N[C@@H](CCCCN)C(=O)N[C@H](C(=O)N[C@@H](CC(C)C)C(=O)N[C@@H](CCCCN)C(=O)N[C@@H](C)C(=O)N[C@@H](C)C(=O)N[C@@H](C)C(=O)N[C@@H](CCCCN)C(=O)O)C(C)C |  | TG1 |  |  | > 25 µM |
| CC[C@H](C)[C@H](N)C(=O)N[C@@H](CC(C)C)C(=O)NCC(=O)N[C@@H](CCC(=O)O)C(=O)N[C@H](C(=O)N[C@@H](Cc1c[nH]c2ccccc12)C(=O)N[C@@H](CCCCN)C(=O)NCC(=O)N[C@H](C(=O)N[C@@H](CCCCN)C(=O)N[C@@H](CC(=O)O)C(=O)N[C@H](C(=O)N[C@@H](CC(C)C)C(N)=O)[C@@H](C)CC)[C@@H](C)CC)[C@@H](C)CC | broth microdilution | ATCC 25922 | concentration not given, together with: BSA |  | 100 µM |
| CC[C@H](C)[C@H](NC(=O)CNC(=O)[C@H](CC(=O)O)NC(=O)[C@H](CCCNC(=N)N)NC(=O)[C@@H](NC(=O)[C@H](CC(N)=O)NC(=O)[C@H](CCCNC(=N)N)NC(=O)CNC(=O)[C@@H](NC(=O)[C@H](CCCCN)NC(=O)[C@H](CCC(=O)O)NC(=O)[C@@H](NC(=O)[C@H](CCCCN)NC(=O)[C@H](CCCCN)NC(=O)[C@H](Cc1ccccc1)NC(=O)[C@@H](NC(=O)[C@H](CCCCN)NC(=O)[C@H](Cc1c[nH]c2ccccc12)NC(=O)[C@@H](N)CCCNC(=N)N)[C@@H](C)CC)[C@@H](C)CC)C(C)C)C(C)C)C(=O)N[C@H](C(=O)N[C@@H](CCCCN)C(=O)N[C@@H](C)C(=O)NCC(=O)N1CCC[C@H]1C(=O)N[C@@H](C)C(=O)N[C@H](C(=O)N[C@@H](C)C(=O)N[C@H](C(=O)N[C@H](C(=O)NCC(=O)N[C@@H](CCC(N)=O)C(=O)N[C@@H](C)C(=O)N[C@@H](C)C(=O)N[C@H](C(=O)N[C@H](C(=O)N[C@H](C(=O)N[C@@H](CCC(=O)O)C(N)=O)C(C)C)C(C)C)[C@@H](C)O)C(C)C)C(C)C)C(C)C)[C@@H](C)CC |  | KCTC 1682, Mueller-Hinton broth | 16 h, 37 °C | growth inhibition over 99% | 2 µM |
| CC1(C)SC2C(NC(=O)C(NC(=O)C3=C(O)C(Cc4ccsc4)NC3=O)c3ccccc3)C(=O)N2C1C(=O)O (centres unmarked) | broth microdilution | isolate IU 356 A, KPC-3, VIM-1, TEM | no clavulanic acid |  | > 200 µg/mL |

Repeated from above:
| SMILES | assay | system | conditions | scale | MIC |
| --- | --- | --- | --- | --- | --- |
| N=C(N)NCCC[C@H](NC(=O)[C@H](Cc1c[nH]c2ccccc12)NC(=O)[C@@H](N)CCCNC(=N)N)C(=O)N[C@@H](Cc1c[nH]c2ccccc12)C(=O)N[C@@H](Cc1ccccc1)C(=O)N[C@@H](CCC(N)=O)C(=O)N[C@@H](Cc1ccccc1)C(=O)N[C@@H](CCC(N)=O)C(=O)N[C@@H](Cc1ccccc1)C(=O)N[C@@H](CCCCN)C(N)=O | broth microdilution, optical density |  |  |  | 4.4 µM |
| CC[C@H](C)[C@H](N)C(=O)N[C@@H](CC(C)C)C(=O)NCC(=O)N[C@@H](CCC(=O)O)C(=O)N[C@H](C(=O)N[C@@H](Cc1c[nH]c2ccccc12)C(=O)N[C@@H](CCCCN)C(=O)NCC(=O)N[C@H](C(=O)N[C@@H](CCCCN)C(=O)N[C@@H](CC(=O)O)C(=O)N[C@H](C(=O)N[C@@H](CC(C)C)C(N)=O)[C@@H](C)CC)[C@@H](C)CC)[C@@H](C)CC | broth microdilution | ATCC 25922 | concentration not given, together with: BSA |  | 100 µM |
| CC[C@H](C)[C@H](NC(=O)[C@H](C)NC(=O)CNC(=O)[C@H](C)NC(=O)[C@H](CCCCN)NC(=O)[C@H](CO)NC(=O)[C@H](C)NC(=O)[C@H](CCSC)NC(=O)CN)C(=O)N[C@@H](C)C(=O)NCC(=O)N[C@@H](CCCCN)C(=O)N[C@H](C(=O)N[C@@H](C)C(=O)N[C@@H](CCCCN)C(=O)N[C@H](C(=O)N[C@@H](C)C(=O)N[C@@H](CC(C)C)C(=O)N[C@@H](CCCCN)C(=O)N[C@@H](C)C(=O)N[C@@H](CC(C)C)C(N)=O)C(C)C)[C@@H](C)CC | broth dilution | K12 BW25113 | 18 h, 37 °C |  | 4.6 µM |
